Published values from different studies.
Every numbered part comes from another study and shows a few of its results, in no order.

Sample 1
Target: Histone acetyltransferase KAT6A, winged helix 2, GST fusion (KAT6A, Homo sapiens, UniProt Q92794, residues 85-181)
Method: protein binding microarray
Form: double-stranded DNA, one strand shown
Sample: in vitro
Concentration: not given
Notes: 8-mer, flanks averaged, mean of 2 arrays, mostly near background
Reference: not given
Reading: higher = stronger binding
Endpoint: E-score
Target sequence (chain): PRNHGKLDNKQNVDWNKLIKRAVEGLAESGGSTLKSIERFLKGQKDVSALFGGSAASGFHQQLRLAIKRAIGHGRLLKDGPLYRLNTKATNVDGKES
TGACCGAA: -0.00285
GTTCGTTA: 0.0743
TAAACCCA: 0.0214
GATACATC: -0.158
GTATGGAC: 0.0981
ACACGTAA: -0.203
ATTAGCCG: -0.00137
CGTTCTAA: 0.012
CCGCGAAA: 0.0898
AGGGGCAC: 0.0791
GAGCTGGC: -0.0499
AACCGGCC: 0.236
AAGGTGTA: -0.0458
GTCGCTTA: 0.0833
ATAAGGGA: -0.172
CTGCCTCC: 0.00224
CAATCTCG: -0.0878
TCCGAGCA: 0.0816
GATTATCC: 0.0616
CACGAACC: 0.0595
CGGGCGGA: 0.176
ATTGCTGG: 0.0567

Sample 2
Target: Interferon regulatory factor 7, full length, phosphomimetic (IRF7, Homo sapiens, UniProt Q92985, residues 1-503, S101K/S471D/S472D/S475D/S476D/S477D/S483D/S484D/S487D)
Method: protein-binding microarray
Form: double-stranded DNA, one strand shown
Sample: in vitro
Concentration: 250 nM
Notes: 60-bp whole probe
Together with: salmon DNA 0.4 mg/ml
Reference: random background probes
Reading: higher = stronger binding
Endpoint: log fluorescence
Constant ends, left off below: GCCTAGCAC … GTCTTGATTCGCTTGACGCTGCTG
Construct (chain): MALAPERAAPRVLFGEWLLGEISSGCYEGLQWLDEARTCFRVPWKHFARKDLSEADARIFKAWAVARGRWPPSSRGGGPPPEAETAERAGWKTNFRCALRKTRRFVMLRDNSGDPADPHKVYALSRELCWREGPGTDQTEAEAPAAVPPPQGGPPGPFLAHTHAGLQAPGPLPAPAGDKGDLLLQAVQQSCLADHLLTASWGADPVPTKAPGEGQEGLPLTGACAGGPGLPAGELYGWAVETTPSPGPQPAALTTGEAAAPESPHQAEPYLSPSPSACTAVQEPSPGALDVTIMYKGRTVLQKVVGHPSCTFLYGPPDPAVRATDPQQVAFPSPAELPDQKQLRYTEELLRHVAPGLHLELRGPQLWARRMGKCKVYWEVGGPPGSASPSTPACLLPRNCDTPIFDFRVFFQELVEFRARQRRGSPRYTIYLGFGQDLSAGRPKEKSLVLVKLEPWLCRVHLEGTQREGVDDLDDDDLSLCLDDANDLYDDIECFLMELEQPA
CTAGGTTTCGGTTTCGGTTAGTGCTAG: 15 z-score
CACGGTATCCTACTGCTGACGTGCTAG: 0.225 z-score
GACGGTATTCTTCTCCTGACGTGCTAG: -0.0551 z-score
GACGATATCGCGACTGGAGACGTGCTA: -0.216 z-score
GAGGATTTCAGTCTCGAGACGTGCTAG: 0.421 z-score
TTGGGTATCGACTATCGGTTAGTGCTA: 0.301 z-score
TCAATCTTCAAGACTCATACTGTGCTA: 0.316 z-score
TCAGCTTTCTCTTTCACACTGTGCTAG: 0.649 z-score
GACGAAATCAGACTGGAGACGTGCTAG: -0.148 z-score
GACGCTTTCCTTATCCTGACGTGCTAG: 1.52 z-score
TTAGGACTGGTGACTGGGTTAGTGCTA: -0.88 z-score
TTAGGACTGATTTTCCTTTAGTGCTAG: 0.721 z-score
GACGAACTGAGTCTCGAGAAGTGCTAG: 0.161 z-score
TTCCTTGCTATGTTGCTCAGGTGCTAG: 0.816 z-score
TTAGGTTTCGGGTATCCGTTAGTGCTA: 7.18 z-score
TTAGGTATCGACTTTCGGGTAGTGCTA: 1.76 z-score
GACGATTTCGGGCATCGAGACGTGCTA: 0.101 z-score
TCAGGTATCCTTTTCCTTTAGTGCTAG: 1.85 z-score
GCGCCTTGATGTCTGGGTCTGTGCTAG: -0.355 z-score

Sample 3
Target: Phosphate system positive regulatory protein PHO4, full length, GST-tagged (PHO4, Saccharomyces cerevisiae, UniProt P07270, residues 1-312)
Method: competition protein-binding microarray
Form: double-stranded DNA, one strand shown
Sample: in vitro
Concentration: 2 µM
Notes: whole 60-bp probe, lowest competitor level
Together with: Cbf1 competitor, 0.05 µM
Reading: higher = stronger binding
Endpoint: fluorescence intensity
Constant ends, left off below: … GTCTTGATTCGCTTGACGCTGCTG
Target sequence (chain): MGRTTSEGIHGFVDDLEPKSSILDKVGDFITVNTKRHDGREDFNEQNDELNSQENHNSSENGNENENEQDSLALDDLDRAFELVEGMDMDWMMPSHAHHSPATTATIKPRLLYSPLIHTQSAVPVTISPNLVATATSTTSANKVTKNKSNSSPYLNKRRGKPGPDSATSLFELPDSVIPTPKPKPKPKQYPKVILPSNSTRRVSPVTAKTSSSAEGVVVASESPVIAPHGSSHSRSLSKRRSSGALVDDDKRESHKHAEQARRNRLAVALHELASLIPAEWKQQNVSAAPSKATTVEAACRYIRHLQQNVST
CCATGGATGAAGTGTATTATAAATTTGGGTTAGGCA: 3480 a.u.
GCAAGATCTAACGGCCACGTATTCTGGGCTTGGAGA: 5070 a.u.
CAAGTTGTCTTTCAGCACATGGAGAGGTGGGAGTGC: 8920 a.u.
CATACCCAACCTTTTCACGTGTCTTAAGATATTTGT: 15000 a.u.
AATTTCCGGCTTCTTCACGTTATGCACCATCACCTT: 4440 a.u.
AATGGAGATATATACTTGATAGCTTTGGATGAATCT: 2490 a.u.
GATCCAGATTTCGACCACGTGCTAATTATGCGTTTG: 20300 a.u.
GAGTCGTCATCCAACCTCGTGATGGAGGTTTTCAGT: 10500 a.u.
CTTCTGTAAATTTGCGGCGTGGGTGGACGCGCCCCG: 7440 a.u.
AAAGCGGTAATTTGTTGAGTGGGTGCAGATATCTAT: 4620 a.u.
TTCTCGGACTTAAAGCATGTGCTCACCATACTACCA: 12600 a.u.
CATACCCAACCTTGGACCGTGGGTGAAGATATTTGT: 9220 a.u.
TGCGCAACAACTTGTCACGGGACTTTATGTCTAGAA: 5400 a.u.
CAGTTTTTAAAATATCACAATTCAGGCGGGTTGCCA: 3370 a.u.
ATCGAATTCCTTTGTAACGTGCAAAGCATTTTATAG: 11100 a.u.
AACTTCAACACCATCACCGTGAAGAACATAGAATTT: 4620 a.u.
TGCGTTAAAACGGCCAATGTGACAGTAGTTCACTCG: 4150 a.u.
AAATTACTAAGTTGCCAAGTGGGTGACGCCGTATGA: 4210 a.u.
TTTTTTCTGTTAGGGCACATGACAATTGCCTATTAT: 9300 a.u.

Sample 4
Target: RING finger protein unkempt homolog, zinc fingers 1-6, SBP tag (UNK, Homo sapiens, UniProt Q9C0B0, residues 30-357)
UniProt Q9C0B0, sequence (30-357, looked up): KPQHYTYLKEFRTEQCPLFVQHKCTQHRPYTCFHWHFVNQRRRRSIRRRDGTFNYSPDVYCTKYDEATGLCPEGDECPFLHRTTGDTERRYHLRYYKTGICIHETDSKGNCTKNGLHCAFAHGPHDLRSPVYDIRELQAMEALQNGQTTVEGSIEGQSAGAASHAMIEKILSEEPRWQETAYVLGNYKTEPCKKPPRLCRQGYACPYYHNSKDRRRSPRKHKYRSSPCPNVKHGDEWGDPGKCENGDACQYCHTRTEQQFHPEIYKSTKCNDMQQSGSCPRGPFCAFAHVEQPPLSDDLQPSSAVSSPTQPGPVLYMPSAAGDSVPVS
Method: RNA Bind-n-Seq
Form: RNA
Sample: in vitro
Concentration: 100 nM
Notes: RNA with constant flanks, vertebrate orthologous sites, ends assumed
Reference: input RNA pool
Reading: higher = stronger binding
Endpoint: bound/input enrichment
Constant ends, left off below: GGGAGUUCUACAGUCCGACGAUC … CAACAGAGGAUUGAGCAUCA
GGCCUCCAGAAGGUGGAGCAUUGCAGUGGUGGCUGUUUUAGAGAUGGAUUUUCUUUUCCUUAGAGGUUUUCCCCAUAUCCUGCCUCUUCUUCCCCUUCCCAAGGUUUGACUUCUGGAUGC: 0.44 ratio
AGCUUCUGAUGUUUGGGAAGUCUAUAUGAUUUAUAAUAUUUUUUGUUUGUAAUAUAAUUUCAUAAAAUUCUUGACAACUGAUGUGCUGACUUUUCUUAUGUUAGGAGGAGUAGGGUCAUA: 0.484 ratio
CUCUCUCAGUGACAGUAUCCCAUCUGUAGCUGAUUCUCACUCAAGUCACUUUUCUGAGUUUAGUUGCUCUGAUAUGGAAAGUAUGAAAACCUCAUGUAGCCAUGGCUCCAGUGAUUAUCA: 0.475 ratio
UCUGUAUAGCAAGUAGAGUGGACUCCCCUUUCUACUUCUCGCAGGAACAAAAAGCCCAGAUAGAUUCUGGACACAUCUGAUUAUACUGUUCUGUUUUUGUUUUCUAUUAUUUUUCCAUUU: 0.717 ratio
AAGAUGGUGGUUGUACAUACUUUUAUUUAGAAAAUAUAAACUUUCAUUUUGUUUUGAAGCUAGAUAUUAAACUGGAAUAGCUAUUAUACCCGAGUGGGGGCACUUGUGCCCUUCCCUUGA: 0.65 ratio
CACCAACUAUAAACUCAGGGCAGUUCUCCCAGUAUCCUUAUGGUAACAUGAAUCAGGGAUUAGUUAACAAUACAGGGAUGAAUCAGAAUCUUGGCCUUACCAGUAAUCCACCAAUGAAUC: 0.502 ratio
GGCUACAAUAAUGAAAACUUAAAGGAUUUCUUUUCAUUUUUAAUUUUCCCCUUAGGCAUAUUUAGGCAUUUUUUUUCCAGGCAGAUCAUUAAGAGUAUGUCUGUGUGUGUGCCCAUGUUA: 0.79 ratio
AAUUUCCAGGAUGAAGCUCUUACAUCAGGUGUCAAGAGUGUGGAAAACAGAUGGGUUGACUAGUUGUUCUUAUAAAUUAUUGUCGGUGGAACACAAUCCUUUAUAUAUCAACGUCACAGU: 0.563 ratio
